Measurements from different studies.
Each numbered part is a random draw from the data of one study; scales do not carry over between parts.
UniProt P42336, sequence (whole entry, unmodified, looked up): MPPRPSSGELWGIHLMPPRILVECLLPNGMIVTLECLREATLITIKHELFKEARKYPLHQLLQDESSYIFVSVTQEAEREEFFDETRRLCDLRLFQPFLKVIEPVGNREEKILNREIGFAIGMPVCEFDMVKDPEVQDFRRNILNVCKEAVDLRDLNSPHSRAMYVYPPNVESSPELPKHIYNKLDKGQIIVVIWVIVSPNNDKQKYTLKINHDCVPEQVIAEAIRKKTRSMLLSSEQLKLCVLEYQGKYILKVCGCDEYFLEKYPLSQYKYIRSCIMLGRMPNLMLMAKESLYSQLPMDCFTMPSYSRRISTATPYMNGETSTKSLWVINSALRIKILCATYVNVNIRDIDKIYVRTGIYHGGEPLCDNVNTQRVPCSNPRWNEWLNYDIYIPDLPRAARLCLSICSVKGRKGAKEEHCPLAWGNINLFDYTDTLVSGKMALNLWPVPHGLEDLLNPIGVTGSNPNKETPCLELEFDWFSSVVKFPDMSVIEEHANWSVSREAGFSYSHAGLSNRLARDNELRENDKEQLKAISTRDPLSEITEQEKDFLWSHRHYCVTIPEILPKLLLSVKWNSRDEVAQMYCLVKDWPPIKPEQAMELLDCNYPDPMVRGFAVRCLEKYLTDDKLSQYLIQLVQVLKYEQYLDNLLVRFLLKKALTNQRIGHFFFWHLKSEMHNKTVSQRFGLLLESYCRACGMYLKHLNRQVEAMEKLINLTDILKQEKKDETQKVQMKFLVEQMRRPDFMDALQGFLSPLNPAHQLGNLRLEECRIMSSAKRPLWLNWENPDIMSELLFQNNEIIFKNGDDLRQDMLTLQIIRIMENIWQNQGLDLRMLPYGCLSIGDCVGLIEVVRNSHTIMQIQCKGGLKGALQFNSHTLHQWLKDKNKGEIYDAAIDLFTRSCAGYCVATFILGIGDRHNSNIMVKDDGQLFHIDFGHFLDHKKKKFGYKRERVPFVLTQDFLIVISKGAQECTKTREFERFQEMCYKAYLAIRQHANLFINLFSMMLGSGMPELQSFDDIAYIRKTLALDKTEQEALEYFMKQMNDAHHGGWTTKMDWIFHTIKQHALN
UniProt O75116, sequence (whole entry, looked up): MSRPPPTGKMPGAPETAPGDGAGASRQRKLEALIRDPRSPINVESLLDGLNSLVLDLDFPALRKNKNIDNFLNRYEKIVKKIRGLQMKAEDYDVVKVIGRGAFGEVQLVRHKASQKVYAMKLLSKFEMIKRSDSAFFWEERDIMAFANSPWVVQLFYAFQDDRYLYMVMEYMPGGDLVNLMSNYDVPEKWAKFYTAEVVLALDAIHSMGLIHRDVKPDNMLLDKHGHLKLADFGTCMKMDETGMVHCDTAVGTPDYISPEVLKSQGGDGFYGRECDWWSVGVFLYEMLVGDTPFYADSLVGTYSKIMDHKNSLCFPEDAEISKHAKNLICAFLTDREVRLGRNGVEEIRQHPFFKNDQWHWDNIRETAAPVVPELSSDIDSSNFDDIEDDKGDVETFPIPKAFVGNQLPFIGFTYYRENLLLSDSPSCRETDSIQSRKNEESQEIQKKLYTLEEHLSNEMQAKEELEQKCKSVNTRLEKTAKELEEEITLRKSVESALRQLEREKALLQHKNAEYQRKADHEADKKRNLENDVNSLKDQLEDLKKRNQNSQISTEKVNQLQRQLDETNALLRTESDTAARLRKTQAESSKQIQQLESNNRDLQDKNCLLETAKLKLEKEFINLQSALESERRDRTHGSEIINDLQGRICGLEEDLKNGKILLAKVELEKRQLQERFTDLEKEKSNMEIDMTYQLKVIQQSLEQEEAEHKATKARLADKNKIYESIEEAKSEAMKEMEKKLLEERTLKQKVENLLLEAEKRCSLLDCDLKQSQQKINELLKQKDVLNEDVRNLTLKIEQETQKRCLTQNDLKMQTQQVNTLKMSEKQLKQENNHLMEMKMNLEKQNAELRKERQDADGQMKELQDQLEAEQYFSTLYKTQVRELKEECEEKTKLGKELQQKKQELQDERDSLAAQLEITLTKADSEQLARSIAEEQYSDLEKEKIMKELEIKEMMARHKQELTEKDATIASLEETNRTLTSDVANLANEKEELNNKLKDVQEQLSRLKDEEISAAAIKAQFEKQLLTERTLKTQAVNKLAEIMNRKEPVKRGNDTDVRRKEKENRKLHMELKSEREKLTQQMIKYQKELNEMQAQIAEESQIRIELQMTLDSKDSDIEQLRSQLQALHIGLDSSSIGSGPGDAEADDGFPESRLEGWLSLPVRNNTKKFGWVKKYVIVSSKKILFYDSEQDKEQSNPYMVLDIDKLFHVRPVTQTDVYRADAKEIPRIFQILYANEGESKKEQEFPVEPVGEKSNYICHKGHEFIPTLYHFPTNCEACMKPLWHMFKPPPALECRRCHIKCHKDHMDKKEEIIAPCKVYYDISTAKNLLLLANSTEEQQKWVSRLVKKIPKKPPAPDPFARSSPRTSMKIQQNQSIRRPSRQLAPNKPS
UniProt Q16288, sequence (whole entry, looked up): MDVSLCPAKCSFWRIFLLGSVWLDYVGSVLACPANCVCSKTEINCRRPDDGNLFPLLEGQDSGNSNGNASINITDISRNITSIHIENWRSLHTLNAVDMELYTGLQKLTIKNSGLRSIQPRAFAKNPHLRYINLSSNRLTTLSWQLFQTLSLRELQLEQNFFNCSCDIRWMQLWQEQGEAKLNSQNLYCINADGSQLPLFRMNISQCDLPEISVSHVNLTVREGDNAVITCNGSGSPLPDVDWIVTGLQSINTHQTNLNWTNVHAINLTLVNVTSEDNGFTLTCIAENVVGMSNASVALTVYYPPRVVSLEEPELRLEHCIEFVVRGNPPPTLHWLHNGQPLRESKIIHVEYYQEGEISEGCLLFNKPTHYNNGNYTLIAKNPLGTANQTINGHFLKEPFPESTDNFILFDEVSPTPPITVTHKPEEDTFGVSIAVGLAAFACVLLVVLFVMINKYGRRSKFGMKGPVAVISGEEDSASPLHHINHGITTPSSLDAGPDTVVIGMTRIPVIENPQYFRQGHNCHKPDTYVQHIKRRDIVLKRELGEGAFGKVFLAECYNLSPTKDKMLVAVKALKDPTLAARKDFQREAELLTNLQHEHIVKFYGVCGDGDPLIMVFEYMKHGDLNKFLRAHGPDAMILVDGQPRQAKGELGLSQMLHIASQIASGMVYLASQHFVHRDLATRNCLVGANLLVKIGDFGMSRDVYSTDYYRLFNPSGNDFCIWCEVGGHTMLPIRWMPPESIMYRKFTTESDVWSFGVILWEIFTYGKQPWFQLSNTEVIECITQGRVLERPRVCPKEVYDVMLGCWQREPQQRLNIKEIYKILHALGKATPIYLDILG
UniProt P54764, sequence (whole entry, looked up): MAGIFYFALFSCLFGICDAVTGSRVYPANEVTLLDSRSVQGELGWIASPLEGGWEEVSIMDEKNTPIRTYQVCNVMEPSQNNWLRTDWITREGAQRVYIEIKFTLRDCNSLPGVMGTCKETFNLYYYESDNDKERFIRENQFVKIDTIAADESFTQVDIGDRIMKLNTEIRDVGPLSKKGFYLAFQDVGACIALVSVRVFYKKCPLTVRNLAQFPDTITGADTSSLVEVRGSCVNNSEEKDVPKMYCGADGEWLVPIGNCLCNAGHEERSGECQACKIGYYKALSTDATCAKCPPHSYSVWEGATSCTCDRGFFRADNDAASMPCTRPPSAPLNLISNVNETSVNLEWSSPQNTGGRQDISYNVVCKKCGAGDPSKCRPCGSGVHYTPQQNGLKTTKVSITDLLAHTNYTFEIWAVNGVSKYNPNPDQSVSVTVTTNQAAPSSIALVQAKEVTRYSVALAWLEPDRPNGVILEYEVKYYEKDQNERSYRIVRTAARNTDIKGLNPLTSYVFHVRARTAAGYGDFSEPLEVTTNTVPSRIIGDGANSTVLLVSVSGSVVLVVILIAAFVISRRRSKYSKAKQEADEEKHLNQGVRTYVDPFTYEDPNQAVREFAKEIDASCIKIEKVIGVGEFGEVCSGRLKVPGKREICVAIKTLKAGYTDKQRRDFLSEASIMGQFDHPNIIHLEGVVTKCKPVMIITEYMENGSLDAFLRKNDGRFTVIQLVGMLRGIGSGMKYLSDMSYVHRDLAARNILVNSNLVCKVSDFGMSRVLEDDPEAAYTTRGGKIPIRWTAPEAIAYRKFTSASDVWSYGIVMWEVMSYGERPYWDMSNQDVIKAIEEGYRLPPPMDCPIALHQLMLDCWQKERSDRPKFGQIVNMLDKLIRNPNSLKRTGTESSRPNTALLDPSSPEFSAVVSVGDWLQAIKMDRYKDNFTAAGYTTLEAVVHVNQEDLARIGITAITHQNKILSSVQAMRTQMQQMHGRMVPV
UniProt Q8NE63, sequence (whole entry, looked up): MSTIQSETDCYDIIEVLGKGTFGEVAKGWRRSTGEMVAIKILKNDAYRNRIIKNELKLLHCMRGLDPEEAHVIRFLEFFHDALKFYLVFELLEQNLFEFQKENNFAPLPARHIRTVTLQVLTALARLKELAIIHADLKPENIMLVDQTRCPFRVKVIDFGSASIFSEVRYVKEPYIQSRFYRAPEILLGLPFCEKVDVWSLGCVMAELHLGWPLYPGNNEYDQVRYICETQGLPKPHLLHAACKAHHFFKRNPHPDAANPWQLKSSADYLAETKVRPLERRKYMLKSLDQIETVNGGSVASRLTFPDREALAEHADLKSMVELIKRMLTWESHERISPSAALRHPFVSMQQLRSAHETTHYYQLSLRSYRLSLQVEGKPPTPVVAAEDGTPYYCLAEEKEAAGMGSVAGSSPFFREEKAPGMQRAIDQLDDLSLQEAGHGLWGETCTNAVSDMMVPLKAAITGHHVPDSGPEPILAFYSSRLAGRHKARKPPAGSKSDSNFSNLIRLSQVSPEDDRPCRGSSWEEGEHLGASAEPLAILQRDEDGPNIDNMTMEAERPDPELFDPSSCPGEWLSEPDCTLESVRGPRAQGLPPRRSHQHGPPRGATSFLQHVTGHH

Study 1
Cell line: HaCaT
Tested at: 100 µM
Time: 36 h
Quantity: viability
CC(C)COc1ccc(CNC(=O)N(Cc2ccc(F)cc2)C2CCN(C)CC2)cc1: 5.4%
C[C@H](CS)C(=O)N1CCC[C@H]1C(=O)O: 87.2%
Cc1cccn2c(=O)c(-c3nnn[nH]3)cnc12: 70.3%
OCC(O)CN1CCN(c2ccccc2)CC1 (stereo not drawn): 108%
O=C(O)c1ccccc1O: 86.6%
Cc1cccc(Nc2ccccc2C(=O)O)c1C: 99.4%
CCOC(=O)C1=C(C)NC(C)=C(C(=O)OC)C1c1cccc([N+](=O)[O-])c1 (stereo not drawn): 34.2%

Study 2
Cell line: 451Lu
Quantity: IC50
CN(C)CCCN1c2ccccc2Sc2ccc(Cl)cc21: 23.2 µM
CC(CN1c2ccccc2Sc2ccccc21)N(C)C (stereo not drawn): 57.9 µM
OC1(c2ccc(Cl)c(C(F)(F)F)c2)CCN(CCCC(c2ccc(F)cc2)c2ccc(F)cc2)CC1: 14.6 µM
OCCN1CCN(CCC=C2c3ccccc3Sc3ccc(C(F)(F)F)cc32)CC1: 32.6 µM
CN1CCN(CCCN2c3ccccc3Sc3ccc(C(F)(F)F)cc32)CC1: 16.6 µM

Study 3
SMILES: Nc1cnc(N2CCc3cc(S(=O)(=O)Nc4c(F)cc(Cl)cc4F)cc(N4CCCC4=O)c32)nc1
Effect on: cell-free assay
Technique: competition with immobilised ligand
Tested at: 1 µM
Quantity: remaining binding
Tyrosine-protein kinase ABL1, phosphorylated (ABL1, Homo sapiens, UniProt P00519, H396P): 86%
Calcium/calmodulin-dependent protein kinase type 1G (CAMK1G, Homo sapiens, UniProt Q96NX5): 100%
Phosphatidylinositol 4,5-bisphosphate 3-kinase catalytic subunit alpha isoform (PIK3CA, Homo sapiens, UniProt P42336, M1043I): 100%
NT-3 growth factor receptor (NTRK3, Homo sapiens, UniProt Q16288): 97%
Mast/stem cell growth factor receptor Kit (KIT, Homo sapiens, UniProt P10721, V559D): 100%
Inhibitor of nuclear factor kappa-B kinase subunit beta (IKBKB, Homo sapiens, UniProt O14920): 96%
Phosphatidylinositol 5-phosphate 4-kinase type-2 gamma (PIP4K2C, Homo sapiens, UniProt Q8TBX8): 100%
Platelet-derived growth factor receptor alpha (PDGFRA, Homo sapiens, UniProt P16234): 89%
Phosphatidylinositol 3-kinase C2 domain-containing subunit gamma (PIK3C2G, Homo sapiens, UniProt O75747): 78%
Serine/threonine-protein kinase MAK (MAK, Homo sapiens, UniProt P20794): 96%
Homeodomain-interacting protein kinase 4 (HIPK4, Homo sapiens, UniProt Q8NE63): 100%
Ephrin type-A receptor 4 (EPHA4, Homo sapiens, UniProt P54764): 100%

Study 4
SMILES: CO[C@H]1C[C@@H]2CC[C@@H](C)[C@@](O)(O2)C(=O)C(=O)N2CCCC[C@H]2C(=O)O[C@H]([C@H](C)C[C@@H]2CC[C@@H](O)[C@H](OC)C2)CC(=O)[C@H](C)/C=C(\C)[C@@H](O)[C@@H](OC)C(=O)[C@H](C)C[C@H](C)/C=C/C=C/C=C/1C
Effect on: enzyme activity
Action: inhibitor
Tested at: 0.5 µM
Reference: control
Quantity: remaining activity
Protein-tyrosine kinase 2-beta (PTK2B, Homo sapiens, UniProt Q14289): 94.2%
Rho-associated protein kinase 2 (ROCK2, Homo sapiens, UniProt O75116): 108%
Calcium/calmodulin-dependent protein kinase type 1D (CAMK1D, Homo sapiens, UniProt Q8IU85): 105%
STE20-like serine/threonine-protein kinase (SLK, Homo sapiens, UniProt Q9H2G2): 98.7%
Mitogen-activated protein kinase 10 (MAPK10, Homo sapiens, UniProt P53779): 95.9%
Proto-oncogene tyrosine-protein kinase ROS (ROS1, Homo sapiens, UniProt P08922): 85%

Excerpt of the above (study 2):
CC(CN1c2ccccc2Sc2ccccc21)N(C)C (stereo not drawn): 57.9 µM
CN(C)CCCN1c2ccccc2Sc2ccc(Cl)cc21: 23.2 µM
CN1CCN(CCCN2c3ccccc3Sc3ccc(C(F)(F)F)cc32)CC1: 16.6 µM
